Experimental data collected from several papers.
Lines come from different studies, so protocols differ. “And” joins repeats or separate records; there may be more than shown. Numbers after ± are the reported error.

Compound	assay	test system	setting	how to read	endpoint	result
CCN1CCN(Cc2ccc(Nc3ncc(F)c(-c4cc(F)c5nc6n(c5c4)[C@H](C)CCC6)n3)nc2)CC1		human advanced solid tumours	300 mg, phase Ia monotherapy RECIST 1.1		progressive disease	33.3%
Cc1cc(Nc2cc3ncccc3c(N[C@@H]3C[C@H]4CC[C@@H](C3)N4CCC#N)n2)n[nH]1		moderate-severe ulcerative colitis patients	270 mg, day 28, Mayo subscore, unit not given	reference: baseline	change in stool frequency	-1
Cc1cn(-c2ccc3n(c2=O)CCN([C@@H](C)[C@@H]2CC[C@H](c4cc(F)c(Cl)cc4C(F)(F)F)O2)C3=O)cn1	refers to: amyloid beta 38	human, non-elderly, cerebrospinal fluid	200 mg once daily, 14 days, sampled 336 h	reference: placebo	change from baseline	46.5%
CC(C)c1c(C(=O)Nc2ccccc2)c(-c2ccccc2)c(-c2ccc(F)cc2)n1CC[C@@H](O)C[C@@H](O)CC(=O)O		cynomolgus monkey, female, serum	40 mg/kg or 25 mg/kg, day 176, 4224 h		total cholesterol	157 mg/dL
C[C@@H](NC(=O)N1C(=O)[C@H](Cc2ccnc(N)c2)[C@H]1C(=O)O)C1CCCCC1		human	iv infusion, 2.25 mg/kg/h, 24 h		aPTT Emax	62.6 s
Cc1cc(-c2nnc(N)nc2-c2ccc(F)cc2)cc(Cl)n1	NanoString, refers to: Canonical.STING.D.IO signature	human mCRPC, peripheral blood	dose not given, 2 or 4 weeks	reference: baseline, direction not given	GSVA score change	0.131
CC(=O)NCC(=O)NCC(=O)N[C@H](C(=O)N[C@@H](Cc1ccc(O)cc1)C(=O)N[C@@H](CO)C(=O)N[C@H]1CSSC[C@@H](C(=O)N[C@@H](CCCNC(=N)N)C(=O)N2CCC[C@H]2C(=O)N[C@@H](CCC(N)=O)C(=O)N[C@@H](CCCNC(=N)N)C(=O)NCC(=O)NCCC(=O)N[C@@H](CCCCNC(=O)CN(CC(=O)NCCCC[C@H](NC(=O)CCNC(=O)CNC(=O)[C@H](CCCNC(=N)N)NC(=O)[C@H](CCC(N)=O)NC(=O)[C@@H]2CCCN2C(=O)[C@H](CCCNC(=N)N)NC(=O)[C@@H]2CSSC[C@H](NC(=O)[C@H](CO)NC(=O)[C@H](Cc3ccc(O)cc3)NC(=O)[C@@H](NC(=O)CNC(=O)CNC(C)=O)[C@@H](C)O)C(=O)N[C@@H](Cc3c[nH]cn3)C(=O)N[C@@H](Cc3ccccc3)C(=O)NCC(=O)N[C@@H](C)C(=O)N[C@@H](CC(C)C)C(=O)N[C@@H]([C@@H](C)O)C(=O)N[C@@H](Cc3c[nH]c4ccccc34)C(=O)N[C@@H](C(C)C)C(=O)N2)C(N)=O)C(=O)CCN)C(N)=O)NC(=O)[C@H](C(C)C)NC(=O)[C@H](Cc2c[nH]c3ccccc23)NC(=O)[C@H]([C@@H](C)O)NC(=O)[C@H](CC(C)C)NC(=O)[C@H](C)NC(=O)CNC(=O)[C@H](Cc2ccccc2)NC(=O)[C@H](Cc2c[nH]cn2)NC1=O)[C@@H](C)O		healthy BALB/c mice	subcutaneous, 0.16 mg/kg, 4 d, single dose		reticulocytes	5.8%
O=C(O)CSc1nnc(Br)n1-c1ccc(C2CC2)c2ccccc12		mouse, acute hyperuricaemia model	1 mg/kg		decrease in serum uric acid	10.8%
CC(c1cc2ccccc2s1)N(O)C(N)=O (stereo not drawn)	refers to: 7-HDHA	human whole blood	3 µM, together with: Escherichia coli		amount	27 ± 10 pg/mL blood
Cc1n[nH]c2ccc(-c3cc(OC[C@@H](N)Cc4ccccc4)cnc3-c3ccoc3)cc12	kinase binding, competitor, MIB/MS competition, refers to: RIO2	Candida albicans cell lysate	100 nM	reference: DMSO	log2 fold change	-0.284
C[C@H]1O[C@@H](O[C@H]2CC[C@@]3(C)[C@@H](CC[C@]4(C)[C@@H]3C=C[C@]35OC[C@@]6(CCC(C)(C)C[C@H]63)[C@@H](O)C[C@]54C)[C@]2(C)CO)[C@H](O)[C@@H](O[C@@H]2O[C@H](CO)[C@@H](O)[C@H](O)[C@H]2O)[C@H]1O	histology	mice, normal diet, liver	dose not given, high dose		Oil Red O area	5.6% and 4.86% and 5.17%
C[C@@H](O)CCOC(=O)C[C@@H](C)O		human	oral drink, dose not given, 120 min post dose, median, all participants		plasma glucagon	21 pM
N#Cc1ccc2c(-c3ccncc3)c(-c3ccc(F)cc3)nn2c1	kinase binding, competitor, MIB/MS competition, refers to: CMK1	Candida albicans cell lysate	1 µM	reference: DMSO	log2 fold change	0.253
C[C@H](NC(=O)c1c(C(F)F)nn(C)c1Oc1cccc(C(F)(F)F)c1)c1ccc(C(=O)O)cc1	irRECIST	human, advanced tumours	750 mg	best overall response	partial response	0%
CC1=NN(c2ccccc2)C(=O)C1	Nissl staining	Rattus norvegicus, MCAO/R model	concentration not given, post-MCAO/R, day 21		brain tissue loss	6.59%
CC(C)NCC(O)c1ccc(O)c(O)c1 (stereo not drawn)		ventricular cardiomyocytes, C57BL/6 mouse	dose not given, 0.124 s		sarcomere length	1.68 µm
C[C@H](CS)C(=O)N1CCC[C@H]1C(=O)O	inhibitor, LC-MS/MS, refers to: Met- or Leu-enkephalin	mouse striatal brain slices	10 µM, 20 min, together with: 50 mM KCl		extracellular enkephalin concentration	637 pM and 674 pM and 635 pM and 871 pM and 608 pM
CC(=O)Oc1cc2c(s1)CCN(C(C(=O)C1CC1)c1ccccc1F)C2 (stereo not drawn)	platelet aggregation, light transmittance aggregometry	human, platelet-rich plasma	dose not given, 30 min, IPA above 90 %, together with: TRAP 5 µM	reference: patients	patients with IPA above threshold	0%

Compound	assay	test system	setting	how to read	endpoint	result
COc1ccccc1[C@H](Cn1c(=O)n(C(C)(C)C(=O)O)c(=O)c2c(C)c(-c3ncco3)sc21)OC1CCOCC1	[1-13C]acetate infusion, isotopomer analysis	overweight or obese healthy men, plasma VLDL-TG palmitate	oral, 200 mg single dose, 4 h post-dose, together with: oral fructose		fractional hepatic DNL	5.47 % new palmitate
CN(CCOc1ccc(CC2SC(=O)NC2=O)cc1)c1ccccn1 (racemic)	indirect calorimetry	mice, diet-induced obese	dose not given, average over 72 h, end of treatment		locomotor activity	377 ± 228 counts/20 min
c1ccc(-c2n[nH]cc2-c2ccnc3ccccc23)nc1	kinase binding, competitor, MIB/MS competition, refers to: SSK2	Candida albicans cell lysate	100 nM	reference: DMSO	log2 fold change	0.705
COc1ccc2c(c1)CC[C@@H]1[C@@H]2CC[C@]2(C)[C@@H](NCCCCCCN3C(=O)C=CC3=O)CC[C@@H]12	immunostaining	humanized mouse, SAH model, meningeal F4/80+ macrophages	dose not given		p-PKC level	9.76 MFI and 8.11 MFI and 6.2 MFI
C[C@H]1C[C@H]2CSC(N)=N[C@@]2(c2nc(NC(=O)c3ccc(OC(F)F)cn3)cs2)CO1	refers to: Aβx-40	healthy adults, plasma	50 mg once daily, day 10	reference: placebo	percent change from baseline	-62.3%
O=S(=O)(NCCNC/C=C/c1ccc(Br)cc1)c1cccc2cnccc12		mouse zygotes	20 µM, 24 h post-hCG		embryos reaching 4-cell	0%
[Mn+2]	flow cytometry	conventional CD4-high T cells, BALB/c mouse	dose not given	reference: no Mn2+	CD18-high cell fraction	0.78 and 4.79 and 10.4 and 0.76 and 3.37 and 1.28 and 1.48 and 5.52
C[C@]12CC[C@@H]3c4ccc(O)cc4C[C@@H](CCCCCCCCC[S+]([O-])CCCC(F)(F)C(F)(F)F)[C@H]3[C@@H]1CC[C@@H]2O (stereo partly drawn)		female nude mouse LCC2 xenograft	2.0 mg/kg, day 5, tamoxifen-resistant		tumour volume	47 mm3 and 30.9 mm3 and 52.1 mm3 and 65.1 mm3 and 41.9 mm3 and 29.6 mm3 and 63.1 mm3
CCO[C@H]1CCN(Cc2c(OC)cc(C)c3[nH]ccc23)[C@H](c2ccc(C(=O)O)cc2)C1		PNH patients, blood	oral, 50 mg then 200 mg, week 2, mean percent change	reference: baseline	C3d-positive type III RBCs	-73.2%
CCOCc1nc(O)c(-c2nnc(Cc3ccc(Cl)cn3)o2)c(O)c1-c1c(OC)cccc1OC		anaesthetised rat	intravenous infusion, 1 µg/kg/min for 15 min	reference: baseline	heart rate change	2 ± 0.5%
CCN(Cc1nc2c(N)nc3cc(-c4cc[nH]n4)ccc3c2[nH]1)C(C)=O	immunohistochemistry, refers to: MPO+ TANs	patients with advanced solid tumours, non-injected tumour lesions	dose not given, monotherapy		patients with increased cells	27%
CC/C=C\C/C=C\C/C=C\C/C=C\C/C=C\CCCC(=O)O		mouse, high-fat diet and streptozotocin diabetes	dose not given, 19 weeks		reduction of mesangial expansion	24 ± 11%
NC(=O)c1cnc2[nH]ccc2c1N[C@@H]1[C@@H]2CC3C[C@H]1C[C@@](O)(C3)C2	CD4+ CD28+ naive T cells, flow cytometry	Caucasian humans, peripheral blood	20 mg single dose	reference: baseline	percent change	-1.47%
OC(CCN1CCCCC1)(c1ccccc1)C1CC2C=CC1C2 (stereo not drawn)	resting-state EEG	healthy elderly humans	oral, 2 mg, eyes closed, LS mean	reference: baseline	EEG beta power, O2 Pz, change in	-4.7%
Cc1cnc(N2CC3(CCOCC3)C2)c(C(=O)Nc2ccc(C(=O)N3CCc4cc(C(=O)Nc5c(C)cccc5F)sc4-c4ccccc43)cc2)c1	refers to: Fibrinogen	human RSV infection, plasma	dose not given, AUC, ITT-IS population	reference: placebo	inhibition	59%
COc1ccc2c3c([nH]c2c1)[C@H](CC(C)C)N1C(=O)[C@H](CC(=O)NC(C)C)NC(=O)[C@@H]1C3	refers to: protoporphyrin IX	Fech-mutant mice, serum	oral, 100 mg/kg, 0.5 h		serum concentration	206 ng/mL and 377 ng/mL
CN[C@@H]1COc2c(S(=O)(=O)NC(=O)Nc3c4c(cc5c3CCC5)CCC4)cnn2C1	refers to: IL-1β	human participants, whole blood ex vivo	900 mg twice daily, multiple doses, 8 h, together with: LPS/ATP	reference: baseline	inhibition	99.7%
CCc1c(C)nc(-c2ccc(Cl)s2)nc1Nc1ccc(CC(=O)O)cc1		mice, chronic ethanol plus binge	intraperitoneal, 0.3 mg/kg daily, ethanol diet 4 weeks, dosed last two	reference: vehicle	serum ALP	no effect
